Measurements from different studies.
Parts stem from different laboratories: compare values within a part only.

Set 1 — method: competition protein-binding microarray; form: double-stranded DNA, one strand shown; matrix: in vitro; concentration: 2 µM; with: Pho4 competitor, 0.05 µM; reading: higher = stronger binding
Target: Centromere-binding protein 1, full length, His-tagged (CBF1, Saccharomyces cerevisiae, UniProt P17106, residues 1-351)
UniProt P17106, sequence (whole entry, looked up): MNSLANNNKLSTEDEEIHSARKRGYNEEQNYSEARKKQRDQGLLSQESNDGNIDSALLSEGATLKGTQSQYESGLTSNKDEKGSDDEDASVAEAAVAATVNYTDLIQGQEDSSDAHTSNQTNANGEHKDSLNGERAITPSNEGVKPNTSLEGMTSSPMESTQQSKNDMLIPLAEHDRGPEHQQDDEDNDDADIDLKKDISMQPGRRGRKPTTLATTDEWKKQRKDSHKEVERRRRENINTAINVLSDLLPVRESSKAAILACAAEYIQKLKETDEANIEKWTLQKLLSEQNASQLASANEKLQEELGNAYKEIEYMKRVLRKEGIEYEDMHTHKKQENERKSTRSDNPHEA
Notes: whole 60-bp probe, lowest competitor level
Sequence | fluorescence intensity [a.u.]
ACTCCCTGCGCCTATGCCGTGCCAGAGCAAATAAAGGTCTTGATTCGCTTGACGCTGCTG | 80
GCCCTGTTGGAGGCCATCGTGGTCGCCAAGAAAGCAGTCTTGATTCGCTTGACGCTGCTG | 58
CCATTAAAAATAATATGTGTGATATTCTTCCACACGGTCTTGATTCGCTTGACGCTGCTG | 128
ACCTTTGGAACTCACCAGGTGATATATTCATCAGCAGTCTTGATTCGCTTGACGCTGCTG | 150
ATGCTATGCCTATTGTTTATTTGGATTTTCCCATATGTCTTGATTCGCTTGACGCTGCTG | 92
AAGACTTAACGATACCACGTGTACAAAGCACTGAATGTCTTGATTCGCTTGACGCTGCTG | 1890
CGCTCGTCTTGGTGGCATGCGCTTTTTTTTTCTTGGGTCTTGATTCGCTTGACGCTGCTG | 84.5
TTTTTTGAGACTTACCTCGTGTTGGTGTCTCCCTGGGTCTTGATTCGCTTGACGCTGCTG | 89.1
CGTCCTAGTGATTGCACGGTGGGTGCCATGAGGAAGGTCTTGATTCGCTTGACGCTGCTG | 87.6
GTCTTATGTGGGTTAAACGTGGGACGAGAACTATAAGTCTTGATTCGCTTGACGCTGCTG | 88.8
AGCGGCCGCAGAACTCACGTGGCAGCTGAACCCTCCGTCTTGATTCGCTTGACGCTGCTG | 828
GGTTTACCGGAATGTCAGGTGATAGCAGCGGAGGGTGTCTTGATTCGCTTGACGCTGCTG | 654
ATTCAGGCGGGTTGCCACGTGGCCGTTTATCTAATGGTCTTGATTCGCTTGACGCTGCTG | 1490
CGGGGTTAAGTTTGTTCAGTGGGTGGCTTGCAGCAGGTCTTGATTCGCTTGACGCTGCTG | 63.4
CGAAGCACTCTCCAACACGTGACTCGGATAACGACCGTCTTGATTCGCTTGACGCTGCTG | 7530
CTTTCCCGATCTTTTCACGTGATGTTAGCACATTTGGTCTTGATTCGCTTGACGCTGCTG | 3050
GACCAGCCGCACCGTCACGTGACGGTATACGATCCTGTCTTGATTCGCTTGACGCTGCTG | 15400
AAAGAGCATTCGAGTCACGTGTATACATTCAAGTGAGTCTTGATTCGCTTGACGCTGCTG | 7070
AAATTACTAAGTTGTCACGTCACTTACCCCGTATGAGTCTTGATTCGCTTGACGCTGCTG | 130
AGAGTAGTCAGTCAACACGTTACCTCTGGTAACAGAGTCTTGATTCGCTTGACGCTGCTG | 122
CTGGGACATATTCAGTTCGTGCCAGTTTTTAAAGGGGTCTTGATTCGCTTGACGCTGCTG | 82.8
CTAACGAAGGTTTGTAAAGTGGGTGACAAGCCAAGTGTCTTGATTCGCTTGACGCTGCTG | 75.8
CCTTTGGAGCAGAGGCACCTGATAATGGAAGCGGTGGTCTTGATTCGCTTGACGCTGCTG | 110
TGCGCAACAACTTTTCACGTGCGTTTATGTCTAGAAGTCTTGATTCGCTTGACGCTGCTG | 1080
TTAAAAAAAAAAAAGCACGTGCTAAAAAATGTTTTTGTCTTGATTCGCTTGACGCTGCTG | 5240

Set 2 — method: EMSA with sequencing; form: double-stranded DNA, one strand shown; matrix: in vitro; concentration: 10 and 20 nM; relative to: negative control set to 0; reading: higher = stronger binding
Target: Hepatocyte nuclear factor 3-alpha (Foxa1, Mus musculus, UniProt P35582, residues 1-468, full length assumed)
Notes: whole designed probe, mean of two concentrations, ends assumed
Sequence | normalised bound fraction
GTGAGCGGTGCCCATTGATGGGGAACCATGTACAAACAAAATATGGGTTGTGTAATTTCAGTAATTCCATGTACAAGTTAAACACTCTGATATATTGCACAATTTGCATTTAAAATGTCGTAAACATGAATGCTAACAATCTTTTTTTTTTTTCCTGAGACGGAGTCTTGCTCTATCGCCCAGGCTGGAGTGCAGCGGCACAATCTCTGCTTACTGCCATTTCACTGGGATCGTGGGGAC | 0.206 ratio
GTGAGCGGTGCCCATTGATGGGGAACTGGCTGGCATCAAGGACTTTGGCTCTGGGGGTGTTCCCAGTCAACAGTTAACTAAAGACCAGGCCACTGTGCCTAGACTGTTTGTGCATTTGTGCAAACAATATGGGTTCATGCTGAACACCTGCGTTCCTTCTGAGAGTCTGAAAAGTTTAGAACATGCCAGGCAGAGGGTGTGTACCTGACCAACCCCCAATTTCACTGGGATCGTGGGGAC | 0.344 ratio
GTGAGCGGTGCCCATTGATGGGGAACTTAAGAAAAGTTGAAACAGGAATTGCTTGATAATCTTGAAAATATGCATGTATGTATGTTTGTTTAATGACTAAATGTATACTATTTGAGAAAGTAATTTAGGAGGGTAGGGGGCAGAAGCCAGATTCAGATTTTTGTGTGATGAAGAATGAATAAATGAATGTTTAGGAGTTGAGGAAATGGAAGAAGTGTTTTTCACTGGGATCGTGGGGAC | 0.452 ratio
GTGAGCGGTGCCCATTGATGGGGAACGCATGAGACAGCATTTCTTCTTGTCCTCGGGGCCTGCAGGAAGTTTTTAAGTAATCTGCTTTTGTGCCTCTTCCAAATCTCCTCCTATGACCCTGTTTACCATACAACACAAGAAACAATCAATAAAAGTGGTTTGTGTTCGTGAGTGCCGTGTGTTTGACAAAGGCGTTGATAACTGAGAGCTGGTAGTGGATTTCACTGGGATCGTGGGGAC | 0.0969 ratio
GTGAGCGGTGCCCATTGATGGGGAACAGCATTATCAGCAGGGGCCAGGCTACTTGGCCCACATCTGTTTACCTATGTCCCAGGCCAGCCTGCACTCATTAGATCAGTGCAGCCATAATTTGTTTGCACAGGAGGTGGCAGAGTGTGTACTTGTGTACTTGACCTCAGACATCAAATACTTAAGTTTTGAAAGTACTGAACTGTGATGTCAGCTTGGTTTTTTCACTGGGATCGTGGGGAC | 0.462 ratio

Set 3 — method: protein-binding microarray; form: double-stranded DNA, one strand shown; matrix: in vitro; concentration: not given; reading: higher = stronger binding
Target: Hepatocyte nuclear factor 3-beta, forkhead domain (FOXA2, Homo sapiens, UniProt Q9Y261, residues 142-269)
Notes: k-mer, scored over probes, only values ≥0.25
Target sequence (chain): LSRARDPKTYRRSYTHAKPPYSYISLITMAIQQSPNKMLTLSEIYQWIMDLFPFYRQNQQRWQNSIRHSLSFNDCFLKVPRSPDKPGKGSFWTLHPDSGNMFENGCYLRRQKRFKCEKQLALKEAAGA
Sequence | E-score
CACAAGTA | 0.275
ACTGTTAT | 0.312
CATACAGA | 0.299
GATAACTA | 0.338
ACTAATGA | 0.29
TATTTGAA | 0.286
ATTACGTA | 0.302
GTATTACA | 0.265
ATCTACAC | 0.293
GTGTCTAA | 0.256
ATAGTCAG | 0.275
ATAGATTA | 0.343
ATATATTC | 0.308
AAACAATA | 0.342
TCTTGTAA | 0.28
AATACGAA | 0.306
ATACGACA | 0.256
CACATCTA | 0.285
ATGTTTAA | 0.356
CATTTCAA | 0.323
GGCATATA | 0.307
TACGGACA | 0.297
AAGTGTAC | 0.332
TACTCATA | 0.251

Set 4 — method: protein-binding microarray; form: double-stranded DNA, one strand shown; matrix: in vitro; concentration: 940 nM top; notes: 60-bp whole probe; with: salmon DNA 0.4 mg/ml; relative to: random background probes; reading: higher = stronger binding; constant ends, left off below: GCCTAGCAC … GTCTTGATTCGCTTGACGCTGCTG
Target: Interferon regulatory factor 5, full length, phosphomimetic (IRF5, Homo sapiens, UniProt Q13568-2, residues 1-514, S451D/S453D/S456D/S462D)
Sequence | fitted relative affinity
TTGGATCTCAGTATCGATTAGTGCTAG | 4.68 z-score
GAGGAACTGGGGACTGGAGACGTGCTA | -0.039 z-score
TTACGACTGGGTTTCGGTTAGTGCTAG | 7.65 z-score
GACGGTATGGGGTTTCGGGACGTGCTA | 2.15 z-score
TCACGGCTCGTTATCCTACTGTGCTAG | 0.00365 z-score
ATCATTTTTGCTTACGATGCGTGCTAG | 0.245 z-score
TTAGGTTTCGGGTTTCGGTTGGTGCTA | 10.6 z-score
GACGGTATCGACTATCGCGACGTGCTA | 4.82 z-score
GACGGTTTCGGTTTCGGGCCGTGCTAG | 13.7 z-score
GACGGACTGGGTCTCTGGACGTGCTAG | -0.867 z-score
TTAGGAATGGGTATCGGTTAGTGCTAG | 3.9 z-score
GACGATTTCAGTTTCGAGATGTGCTAG | 4.48 z-score
GACGGTATCGGTTTCGGGATGTGCTAG | 9.23 z-score
TTAGATCTCAGACTGCATTAGTGCTAG | -0.338 z-score
TCAATTCTCAACCCTGGTACTGTGCTA | 1.11 z-score
GACGGTATCGGGACCGGGGACGTGCTA | 3.38 z-score
TTAGGGCTGGGGACTGGGTTAGTGCTA | -0.337 z-score
GACGGTATCGACCCTGGGGACGTGCTA | 2.96 z-score

Set 5 — method: RNA Bind-n-Seq; form: RNA; matrix: in vitro; concentration: not given; relative to: input RNA pool; reading: higher = stronger binding
Target: RING finger protein unkempt homolog, zinc fingers 1-6, GST-SBP tag (UNK, Homo sapiens, UniProt Q9C0B0, residues 30-357)
Notes: RNA with constant flanks, human-mouse chimeric sites, ends assumed
Residues (chain): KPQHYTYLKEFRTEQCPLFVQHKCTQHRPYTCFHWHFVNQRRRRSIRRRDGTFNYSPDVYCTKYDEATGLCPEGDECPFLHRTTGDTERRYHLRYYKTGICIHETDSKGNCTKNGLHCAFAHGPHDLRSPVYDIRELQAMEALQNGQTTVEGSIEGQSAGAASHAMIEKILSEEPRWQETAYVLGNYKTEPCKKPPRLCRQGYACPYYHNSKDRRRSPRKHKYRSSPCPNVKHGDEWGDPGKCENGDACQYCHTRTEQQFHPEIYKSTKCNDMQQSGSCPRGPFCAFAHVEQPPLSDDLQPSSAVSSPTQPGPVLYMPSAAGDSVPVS
Sequence | bound/input enrichment [ratio]
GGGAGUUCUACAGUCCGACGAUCAGAAUCUUGGGACUGUUUUACUUAAUUGGUCAUUGGUAGCUUAACAAACAUGGAGAUAAGAUUAGAAAUCUUGACAUCAACAGGUAUUAAGCAGAAAAAACCAUGGCCACGUGUCUCCUGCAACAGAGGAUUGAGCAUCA | 0.103
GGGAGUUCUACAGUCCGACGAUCCACACCCUCUUCUGCGGGACCCUCAUCUUGCAGGCCCGGGCCUAUGUGGGACCGCACGUCCUGGCAGUGGUGACCCGCACAGGGUUCUGCACAGCCAAAGGGGGCCUGGUGAGCUCCAUCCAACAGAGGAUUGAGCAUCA | 0.0844
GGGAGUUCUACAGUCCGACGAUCGAUAAGAAAAGCUUGUUGGAGACCCGCUUGCAUGUCACUGGCAGAGACCUGAGGUGUCAAAUAGCUGAAACUUUCGGAUUUCAAGAAAAUUACAUCAAGAUCGUAAUAAAUAAGAAACAGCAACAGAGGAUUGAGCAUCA | 0.282
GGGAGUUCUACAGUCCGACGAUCGUCAACAGCUGCCUCAAUCCCAUUCUCUACGCCUUCCUGGAUGAGAACUUCAAGGCCUGCUUUAGAAAGUUCUGCUGUGCAUCUGCCCUGCGCCGGGACGUGCAGGUGUCUGACCGCGUGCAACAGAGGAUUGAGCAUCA | 0.526
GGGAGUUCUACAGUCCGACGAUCGCAAGAGAUGAUGAGGCGGCAGCUGUUGCACUUUCCUCUCUCGUUCAUGCUUUGGAUGAGUUAAACAUGGUCGCCAUCGUCCGAUAUGCUUAUGACAAAAGAUCUAAUCCUCAAGUUGGUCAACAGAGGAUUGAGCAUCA | 0.0925
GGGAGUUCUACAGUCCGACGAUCGCUCUUGGGAAUGUAAUAAGUGCCUUGGGGGACAAGAGCAAGAGAGCCACCCAUGUCCCUUACAGAGACUCUAAGCUGACAAGACUCUUGCAGGAUUCCCUUGGGGGUAACAGCCAAACCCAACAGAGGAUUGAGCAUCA | 0.157
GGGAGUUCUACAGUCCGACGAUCAACUUCGUGCAUCGGUUUCCCUUUGUAGCUGUUUCAAUUGGCUUCCUUGUAAAUAAAGAGAUGGAGUUUGGAAUUGUGUACAGCUGUGUGGAAGAUAAGAUGUACACUGCCAGAAAAGGGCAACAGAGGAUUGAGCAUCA | 0.28
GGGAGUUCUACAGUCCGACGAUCUAAAUUAGGGCUGCCGUCCGUUCUCACUCCCUGGGCUGCGGAAAGCCAGGCGGUUUUAUCUAGCUUAUACAAGGCUGCUGGUGUUCCCUCUUUUUUUCCACGAGGGUGUUUUUGGCUGCACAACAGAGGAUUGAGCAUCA | 1.9
